Results from different studies.
Several values in a cell are separate wells, animals, samples, runs or records.
MTNR1B: Melatonin receptor type 1B (MTNR1B, Homo sapiens, UniProt P49286)
Sequence of UniProt P49286 (whole entry, looked up): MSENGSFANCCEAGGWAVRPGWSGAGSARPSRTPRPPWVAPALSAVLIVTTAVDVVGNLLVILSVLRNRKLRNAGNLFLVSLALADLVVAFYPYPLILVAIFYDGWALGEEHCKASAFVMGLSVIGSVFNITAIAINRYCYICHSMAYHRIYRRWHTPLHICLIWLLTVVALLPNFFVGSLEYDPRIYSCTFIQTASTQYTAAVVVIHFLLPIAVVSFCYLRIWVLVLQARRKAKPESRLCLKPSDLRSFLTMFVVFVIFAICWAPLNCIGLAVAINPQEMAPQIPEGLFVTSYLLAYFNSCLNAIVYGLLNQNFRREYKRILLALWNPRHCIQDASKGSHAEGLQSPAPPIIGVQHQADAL
Sequence of UniProt P11802 (whole entry, looked up): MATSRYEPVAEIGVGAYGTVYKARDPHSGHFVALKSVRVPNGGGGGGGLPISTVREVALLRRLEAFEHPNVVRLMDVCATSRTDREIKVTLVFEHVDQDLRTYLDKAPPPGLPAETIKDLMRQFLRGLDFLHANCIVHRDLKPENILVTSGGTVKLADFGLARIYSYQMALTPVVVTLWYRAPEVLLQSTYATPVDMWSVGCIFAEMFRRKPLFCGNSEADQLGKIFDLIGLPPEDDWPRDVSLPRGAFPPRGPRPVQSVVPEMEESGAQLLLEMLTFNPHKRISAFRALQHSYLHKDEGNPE
Sequence of UniProt P21709 (whole entry, looked up): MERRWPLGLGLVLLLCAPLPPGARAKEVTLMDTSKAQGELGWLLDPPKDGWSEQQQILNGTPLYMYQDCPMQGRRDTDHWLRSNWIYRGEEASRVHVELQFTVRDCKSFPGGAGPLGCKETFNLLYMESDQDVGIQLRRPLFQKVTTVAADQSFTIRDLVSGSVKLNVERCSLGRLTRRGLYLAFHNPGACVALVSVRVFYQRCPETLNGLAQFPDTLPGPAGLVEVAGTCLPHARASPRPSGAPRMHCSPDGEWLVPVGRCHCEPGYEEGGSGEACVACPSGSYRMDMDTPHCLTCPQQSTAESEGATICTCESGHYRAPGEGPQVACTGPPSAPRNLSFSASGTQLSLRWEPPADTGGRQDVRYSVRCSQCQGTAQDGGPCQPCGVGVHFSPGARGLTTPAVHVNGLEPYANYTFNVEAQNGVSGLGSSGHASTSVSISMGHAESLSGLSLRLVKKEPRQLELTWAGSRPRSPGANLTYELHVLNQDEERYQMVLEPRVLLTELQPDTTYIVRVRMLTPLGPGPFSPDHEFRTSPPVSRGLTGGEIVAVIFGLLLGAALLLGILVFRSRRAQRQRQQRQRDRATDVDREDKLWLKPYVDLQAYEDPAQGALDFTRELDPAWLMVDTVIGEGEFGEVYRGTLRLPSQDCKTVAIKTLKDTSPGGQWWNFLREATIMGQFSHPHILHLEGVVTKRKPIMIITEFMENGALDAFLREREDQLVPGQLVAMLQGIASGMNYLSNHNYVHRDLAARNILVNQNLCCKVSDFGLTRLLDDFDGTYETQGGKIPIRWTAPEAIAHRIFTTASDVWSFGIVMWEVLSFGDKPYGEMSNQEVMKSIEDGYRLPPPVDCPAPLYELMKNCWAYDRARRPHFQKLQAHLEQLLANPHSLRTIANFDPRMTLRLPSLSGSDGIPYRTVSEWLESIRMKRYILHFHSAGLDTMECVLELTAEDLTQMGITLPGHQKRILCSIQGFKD
Sequence of UniProt Q8NEV4 (whole entry, looked up): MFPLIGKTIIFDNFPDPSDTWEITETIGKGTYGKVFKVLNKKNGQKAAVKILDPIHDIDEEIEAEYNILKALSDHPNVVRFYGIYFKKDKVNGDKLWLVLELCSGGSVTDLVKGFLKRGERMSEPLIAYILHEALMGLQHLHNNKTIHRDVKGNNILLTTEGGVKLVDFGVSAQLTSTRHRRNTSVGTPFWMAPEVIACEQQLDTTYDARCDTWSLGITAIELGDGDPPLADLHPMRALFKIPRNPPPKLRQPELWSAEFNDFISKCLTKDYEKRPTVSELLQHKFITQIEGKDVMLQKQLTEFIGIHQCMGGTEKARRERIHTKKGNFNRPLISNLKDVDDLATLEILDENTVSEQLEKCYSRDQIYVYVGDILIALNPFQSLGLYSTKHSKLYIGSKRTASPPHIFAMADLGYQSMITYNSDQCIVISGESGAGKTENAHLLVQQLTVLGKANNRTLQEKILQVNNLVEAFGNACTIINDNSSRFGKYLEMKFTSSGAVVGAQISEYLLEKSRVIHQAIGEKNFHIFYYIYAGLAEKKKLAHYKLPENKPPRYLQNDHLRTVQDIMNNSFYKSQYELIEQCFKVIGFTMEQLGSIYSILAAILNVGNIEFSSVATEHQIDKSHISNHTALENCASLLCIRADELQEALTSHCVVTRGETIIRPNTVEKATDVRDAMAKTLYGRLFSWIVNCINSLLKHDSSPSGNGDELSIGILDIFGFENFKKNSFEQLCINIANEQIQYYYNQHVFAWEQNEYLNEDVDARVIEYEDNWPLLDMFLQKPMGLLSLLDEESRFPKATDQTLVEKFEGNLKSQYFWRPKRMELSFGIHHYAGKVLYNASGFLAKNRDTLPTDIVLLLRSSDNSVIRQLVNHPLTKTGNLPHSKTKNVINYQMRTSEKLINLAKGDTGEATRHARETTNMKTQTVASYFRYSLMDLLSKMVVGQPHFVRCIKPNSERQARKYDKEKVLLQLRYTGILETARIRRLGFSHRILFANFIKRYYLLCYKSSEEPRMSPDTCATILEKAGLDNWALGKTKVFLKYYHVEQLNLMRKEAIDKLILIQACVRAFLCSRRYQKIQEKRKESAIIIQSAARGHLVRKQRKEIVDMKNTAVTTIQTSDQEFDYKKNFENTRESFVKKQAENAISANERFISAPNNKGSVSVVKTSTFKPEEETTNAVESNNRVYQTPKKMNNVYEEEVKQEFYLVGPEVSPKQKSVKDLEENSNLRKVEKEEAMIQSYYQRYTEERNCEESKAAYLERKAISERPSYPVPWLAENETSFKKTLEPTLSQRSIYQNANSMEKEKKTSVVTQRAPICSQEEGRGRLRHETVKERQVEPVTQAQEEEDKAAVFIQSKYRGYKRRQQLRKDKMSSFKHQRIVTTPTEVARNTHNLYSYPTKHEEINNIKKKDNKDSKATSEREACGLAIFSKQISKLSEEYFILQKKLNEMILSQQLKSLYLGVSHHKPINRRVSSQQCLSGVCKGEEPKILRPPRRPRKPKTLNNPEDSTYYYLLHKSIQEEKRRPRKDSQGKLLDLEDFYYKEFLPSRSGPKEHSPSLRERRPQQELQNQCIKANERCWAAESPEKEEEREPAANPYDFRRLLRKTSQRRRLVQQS
Sequence of UniProt Q9SZU7 (whole entry, unmodified, looked up): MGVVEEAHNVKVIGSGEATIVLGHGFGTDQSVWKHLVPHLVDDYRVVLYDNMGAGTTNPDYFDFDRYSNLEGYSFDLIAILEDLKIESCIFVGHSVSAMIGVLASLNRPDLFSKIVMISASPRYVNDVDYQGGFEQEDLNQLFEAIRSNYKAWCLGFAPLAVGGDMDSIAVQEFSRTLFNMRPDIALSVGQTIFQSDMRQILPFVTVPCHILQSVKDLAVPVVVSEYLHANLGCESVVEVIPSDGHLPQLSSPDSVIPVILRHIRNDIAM
Sequence of UniProt Q9NYL2 (whole entry, looked up): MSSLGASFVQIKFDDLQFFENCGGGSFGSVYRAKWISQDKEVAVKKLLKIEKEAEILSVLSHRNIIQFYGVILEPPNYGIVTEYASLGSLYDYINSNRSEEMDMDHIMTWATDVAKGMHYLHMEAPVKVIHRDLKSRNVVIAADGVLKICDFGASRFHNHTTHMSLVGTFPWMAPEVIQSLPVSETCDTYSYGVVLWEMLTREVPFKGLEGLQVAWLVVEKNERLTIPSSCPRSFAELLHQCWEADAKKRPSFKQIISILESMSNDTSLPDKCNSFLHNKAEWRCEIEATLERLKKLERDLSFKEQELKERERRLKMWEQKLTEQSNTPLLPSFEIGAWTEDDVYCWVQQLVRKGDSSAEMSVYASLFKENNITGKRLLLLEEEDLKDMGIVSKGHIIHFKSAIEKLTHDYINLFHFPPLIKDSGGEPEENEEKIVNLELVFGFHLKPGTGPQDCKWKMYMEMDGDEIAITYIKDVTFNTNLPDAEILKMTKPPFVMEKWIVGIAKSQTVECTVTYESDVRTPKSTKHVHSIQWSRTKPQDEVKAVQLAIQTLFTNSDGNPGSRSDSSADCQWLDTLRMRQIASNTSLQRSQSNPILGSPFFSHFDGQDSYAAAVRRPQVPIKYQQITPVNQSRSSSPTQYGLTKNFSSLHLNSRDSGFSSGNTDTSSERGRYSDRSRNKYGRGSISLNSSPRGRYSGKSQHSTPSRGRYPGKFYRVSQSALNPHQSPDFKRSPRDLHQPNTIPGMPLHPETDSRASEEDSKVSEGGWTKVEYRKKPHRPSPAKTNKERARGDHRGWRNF
Sequence of UniProt P20309 (whole entry, looked up): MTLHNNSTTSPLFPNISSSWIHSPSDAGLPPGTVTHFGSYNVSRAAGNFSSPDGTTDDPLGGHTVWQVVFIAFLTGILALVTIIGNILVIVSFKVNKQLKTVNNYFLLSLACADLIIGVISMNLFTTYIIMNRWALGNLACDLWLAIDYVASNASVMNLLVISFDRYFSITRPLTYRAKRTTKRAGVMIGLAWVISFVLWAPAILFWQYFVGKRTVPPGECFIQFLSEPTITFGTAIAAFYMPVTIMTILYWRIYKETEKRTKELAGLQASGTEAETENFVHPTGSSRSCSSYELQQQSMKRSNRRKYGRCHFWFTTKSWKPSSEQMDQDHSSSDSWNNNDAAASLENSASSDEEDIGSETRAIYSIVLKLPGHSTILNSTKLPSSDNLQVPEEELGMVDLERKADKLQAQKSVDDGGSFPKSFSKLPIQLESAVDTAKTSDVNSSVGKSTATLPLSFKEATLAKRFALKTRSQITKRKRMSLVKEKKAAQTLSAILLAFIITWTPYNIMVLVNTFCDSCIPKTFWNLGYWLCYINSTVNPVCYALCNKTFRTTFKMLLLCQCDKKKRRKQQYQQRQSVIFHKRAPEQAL

Structure (SMILES)	tested on	test	system	setting	endpoint	value
CN(C)c1ccc(C(=O)NCc2cc(O)c(O)c(Br)c2)cc1	Replicase polyprotein 1ab, papain-like protease (rep, Porcine epidemic diarrhea virus, UniProt P0C6Y4)	enzyme activity, inhibitor, FRET	–	10 µM	inhibition	80.2%
Cc1cc2c(cc1N1C(=O)c3cccc4c(Cl)ccc(c34)C1=O)n(C)c(=O)n2C	Protein polybromo-1, BD2 (PBRM1, Homo sapiens, UniProt Q86U86)	thermal stability, DSF	–	10 µM	ΔTm	-1 °C
COc1ccc2[nH]cc(CCNC(C)=O)c2c1I	MTNR1B	β-arrestin recruitment, agonist	MT2	90 min	Emax	91%
CC[C@H](C)[C@H](NC(=O)[C@H](CCC(N)=O)NC(=O)[C@@H](NC(=O)[C@H](CCSC)NC(=O)[C@H](CCCCN)NC(=O)[C@H](CO)NC(=O)[C@@H](NC(=O)[C@H](CCSC)NC(=O)[C@H](CC(C)C)NC(=O)[C@H](CC(N)=O)NC(=O)[C@@H](NC(=O)[C@@H](NC(=O)[C@H](CO)NC(=O)[C@H](CC(C)C)NC(=O)[C@H](C)NC(=O)[C@H](CCCNC(=N)N)NC(=O)[C@H](CCC(=O)O)NC(=O)[C@H](Cc1ccc(O)cc1)NC(=O)[C@H](Cc1ccccc1)NC(=O)[C@H](C)NC(=O)[C@H](CC(N)=O)NC(=O)[C@@H](N)CCCCN)[C@@H](C)CC)[C@@H](C)CC)[C@@H](C)O)C(C)C)C(=O)N[C@@H](CC(N)=O)C(=O)N[C@H](C(=O)O)C(C)C	MAPK3 (Homo sapiens, UniProt P27361)	enzyme activity, inhibitor, radiometric	–	250 µM, 20 min	remaining activity	65%
NC/C(=C\F)COc1cccc(Cn2c(=S)[nH]c(=O)c3[nH]cnc32)c1	CHRM3 (Homo sapiens, UniProt P20309)	ligand displacement, radioligand	–	10 µM	inhibition	< 50%
Cc1cccc(N(O)N=Nc2ccc(S(=O)(=O)Nc3nccs3)cc2)c1	–	DPPH scavenging, absorbance	–	120 µg/mL	inhibition	30.5%
C1=C/COCc2cc(ccc2OCCN2CCCC2)Nc2nccc(n2)-c2cccc(c2)COC/1	PIK3CA (Homo sapiens, UniProt P42336, M1043I)	binding	–	0.1 µM	remaining binding	74%
CC(=O)c1cccc(NC(=O)Nc2cc3c(cc2Oc2ccccc2)n(C)c(=O)n3C)c1	RET (Homo sapiens, UniProt P07949)	enzyme activity, inhibitor, radiometric	–	10 µM	remaining activity	99.7%
CCCCC(=O)Nc1ccc(-c2ccc3ncn(CCC)c(=O)c3c2)cn1	Myosin-IIIa (MYO3A, Homo sapiens, UniProt Q8NEV4)	binding, competition with immobilised ligand	–	0.5 µM	remaining binding	100%
C=CC(=O)N1CCC(COCC(=O)N2CCN(c3nc(-c4cnc(N)nc4C(F)F)nc(N4CCOC[C@@H]4C)n3)CC2)CC1	EPHA1 (Homo sapiens, UniProt P21709)	binding, competition with immobilised ligand	–	1 µM	remaining binding	100%
CNc1ncc2c(/C=C/C(=O)N3CCC(OC)CC3)nn(Cc3cccc(C(F)(F)F)c3)c2n1	MAP3K20 (Homo sapiens, UniProt Q9NYL2)	enzyme activity, inhibitor, radiometric	–	1 µM	remaining activity	102%
CC1CCCN1c1nccc(-c2cnn3ncccc23)n1 (stereo not drawn)	CDPK1 (Plasmodium falciparum, UniProt P62344)	binding	–	1 µM	remaining binding	100%
CC(=O)/C=C/C=C(C)/C=C/C1=C(C)CC(O)CC1(C)C (stereo in doubt)	KAI2 (Arabidopsis thaliana, UniProt Q9SZU7)	thermal stability	–	100 µM	ΔTm	3.84 °C
Cc1cc([C@@H](C)Nc2ccccc2C(=O)O)c2nc(N3CCC(F)(F)CC3)c(C#N)c(=O)n2c1	FGFR2 (Homo sapiens, UniProt P21802)	binding, competition with immobilised ligand	–	1 µM	remaining binding	100%
Cc1cccc(N(O)N=Nc2ccc(S(=O)(=O)Nc3cc(C)on3)cc2)c1	–	DPPH scavenging, absorbance	–	120 µg/mL	inhibition	32.4%
CCc1ccc2scc(CCNC(C)=O)c2c1	MTNR1B	GTPγS binding, agonist, radiometric	–	cell membranes	Emax	87%
Cc1ccc(C(=O)Nc2ccc(CN3CCN(C)CC3)c(C(F)(F)F)c2)cc1C#Cc1cnc2cccnn12	CDK4 (Homo sapiens, UniProt P11802)	enzyme activity, inhibitor	–	23.5 nM	activity vs control	98% and 94%
Nc1ncnc2occ(-c3ccc(NC(=O)Nc4cc(C(F)(F)F)ccc4F)cc3)c12	IRAK3 (Homo sapiens, UniProt Q9Y616)	cell-free assay, inhibitor	–	20 µM	remaining signal	35%
COc1cc2c(CCNC(C)=O)c[nH]c2cc1I	MTNR1B	cAMP, agonist, TR-FRET	CHO-K1	20 min	Emax	98%
COc1cc(-c2cncc3c2CN(C)Cc2cc(N4CCNCC4)ccc2-3)cc(OC)c1OC	EPHA5 (Homo sapiens, UniProt P54756)	enzyme activity, inhibitor	–	1 µM	remaining activity	107%
CC(=NNC(N)=S)c1ccc(Nc2nnc(-c3ccc(Cl)cc3)c3ccccc23)cc1	HepG2	cell growth or viability, MTT	–	0.312 µM	cell death	91.5%

Repeated from above:
Structure (SMILES)	tested on	test	system	setting	endpoint	value
CC(=O)/C=C/C=C(C)/C=C/C1=C(C)CC(O)CC1(C)C (stereo in doubt)	KAI2 (Arabidopsis thaliana, UniProt Q9SZU7)	thermal stability	–	100 µM	ΔTm	3.84 °C
Cc1cc([C@@H](C)Nc2ccccc2C(=O)O)c2nc(N3CCC(F)(F)CC3)c(C#N)c(=O)n2c1	FGFR2 (Homo sapiens, UniProt P21802)	binding, competition with immobilised ligand	–	1 µM	remaining binding	100%
